Results collected from several papers.
A part holds a random share of what one study measured.

Sample 1 — method: protein-binding microarray; molecule type: double-stranded DNA, one strand shown; sample: in vitro; tested at: 2540 nM top; notes: 60-bp whole probe; added: salmon DNA 0.4 mg/ml; reference: random background probes; reading: higher = stronger binding; endpoint: fitted relative affinity; shared flanks, not repeated: GCCTAGCAC … GTCTTGATTCGCTTGACGCTGCTG
Target: Interferon regulatory factor 3, full length, phosphomimetic (IRF3, Homo sapiens, UniProt Q14653, residues 1-427, S386D/S396D/S398D/S402D/T404D/S405D)
Residues (chain): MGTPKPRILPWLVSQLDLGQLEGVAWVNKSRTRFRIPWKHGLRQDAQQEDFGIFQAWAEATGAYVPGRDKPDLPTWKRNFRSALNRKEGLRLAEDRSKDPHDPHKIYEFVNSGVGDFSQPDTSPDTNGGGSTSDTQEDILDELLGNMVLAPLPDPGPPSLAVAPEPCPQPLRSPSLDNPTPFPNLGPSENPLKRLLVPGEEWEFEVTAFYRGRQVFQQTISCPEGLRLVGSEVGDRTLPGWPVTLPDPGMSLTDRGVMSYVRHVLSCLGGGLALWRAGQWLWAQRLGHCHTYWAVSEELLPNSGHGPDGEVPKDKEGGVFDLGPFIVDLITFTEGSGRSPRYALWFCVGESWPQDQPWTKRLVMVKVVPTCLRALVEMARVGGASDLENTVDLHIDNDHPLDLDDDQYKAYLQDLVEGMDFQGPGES
Strand = TTGGGTTTCGGTTCCGGTTAGTGCTAG; value = 9.34 z-score
Strand = TTAGGTTCTCTTTTCCTTTAGTGCTAG; value = 3.36 z-score
Strand = TTAGATATCAGTCTCGATCAGTGCTAG; value = 1.15 z-score
Strand = TCATCTCCCAGACTGGAACTGTGCTAG; value = 0.92 z-score
Strand = TTAGCACTGAGACTGGATTAGTGCTAG; value = -0.604 z-score
Strand = GCAAGAGGAAAGGAACATCAGTGCTAG; value = 0.0668 z-score
Strand = GGCGGACTGGGTCTCGGGACGTGCTAG; value = -1.28 z-score
Strand = GACGATATGGGGTATCGAGACGTGCTA; value = -0.289 z-score
Strand = GACGATTTAAGTTTCGAGACGTGCTAG; value = 2.34 z-score

Sample 2 — method: protein binding microarray; molecule type: double-stranded DNA, one strand shown; sample: in vitro; tested at: not given; reference: not given; reading: higher = stronger binding; endpoint: E-score
Target: Histone acetyltransferase KAT6A, winged helix 1, GST fusion (KAT6A, Homo sapiens, UniProt Q92794, residues 1-85)
Notes: 8-mer, flanks averaged, mean of 2 arrays, mostly near background
Residues (chain): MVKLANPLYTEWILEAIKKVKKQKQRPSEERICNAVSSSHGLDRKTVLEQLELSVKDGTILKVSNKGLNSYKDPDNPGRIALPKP
Strand = TCGCCAAA; value = -0.096
Strand = CTCAGCAC; value = -0.143
Strand = ATGTGGTC; value = -0.215
Strand = AAAGGAGC; value = 0.0898
Strand = ATGTTTTG; value = -0.0629
Strand = GGATGTGA; value = -0.142
Strand = CCGAGAAA; value = 0.0782
Strand = GCTAGCGA; value = 0.00918
Strand = AATCGTAT; value = -0.152

Sample 3 — method: competition protein-binding microarray; molecule type: double-stranded DNA, one strand shown; sample: in vitro; tested at: 2 µM; added: Cbf1 competitor, 0.05 µM; reading: higher = stronger binding; endpoint: fluorescence intensity; shared flanks, not repeated: … GTCTTGATTCGCTTGACGCTGCTG
Target: Phosphate system positive regulatory protein PHO4, full length, GST-tagged (PHO4, Saccharomyces cerevisiae, UniProt P07270, residues 1-312)
Notes: whole 60-bp probe, lowest competitor level
Target sequence (chain): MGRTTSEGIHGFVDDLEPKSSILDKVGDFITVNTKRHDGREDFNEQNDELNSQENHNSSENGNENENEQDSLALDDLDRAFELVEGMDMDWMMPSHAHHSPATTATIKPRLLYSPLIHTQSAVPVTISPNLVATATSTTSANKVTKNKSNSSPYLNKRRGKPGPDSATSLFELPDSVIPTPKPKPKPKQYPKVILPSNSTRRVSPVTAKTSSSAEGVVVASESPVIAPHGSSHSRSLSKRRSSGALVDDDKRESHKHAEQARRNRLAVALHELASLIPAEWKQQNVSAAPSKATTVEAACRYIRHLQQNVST
Strand = TTCAAACTAAGTTGACCCGTGAATTGGAAAAGAAAT; value = 4880 a.u.
Strand = ACCGGCAAAATACTACACGTGCCAGTACGGCACCAA; value = 14600 a.u.
Strand = AGAGCTGCGGGCATGGACGTGCCGATTATTCCCGGG; value = 6250 a.u.
Strand = TATACGAATGTTACCCACGATGGCCGGAGTAGCTGT; value = 12700 a.u.
Strand = TCATCGCACATTTTGCACGATGAGGACACAGGAAAT; value = 9220 a.u.
Strand = CTACGGTTCCTGCCGCTCGTGGGTACCCCAAGCAAA; value = 9700 a.u.

Mixed results
Molecule = PhoQ, residues 284 288 289 292 302 303 SSCLAV; target = PhoP, residues 12 14 15 18 19 TQALL (Escherichia coli, UniProt P23836); test = Sort-seq, item: YFP reporter; system = E. coli; conditions = PhoQ-PhoP variant library, added: 10 µM Mg2+; scale = reference: high Mg2+ state, higher = stronger signaling; endpoint = fold induction; value = 7.06

For quick reference, copied from above (sample 1):
Strand = GACGATTTAAGTTTCGAGACGTGCTAG; value = 2.34 z-score
Strand = GCAAGAGGAAAGGAACATCAGTGCTAG; value = 0.0668 z-score
Strand = TTAGATATCAGTCTCGATCAGTGCTAG; value = 1.15 z-score
